Experimental data gathered from unrelated publications.
Each numbered part is a random draw from the data of one study; scales do not carry over between parts.
Chain of UniProt P10721 (whole entry, looked up): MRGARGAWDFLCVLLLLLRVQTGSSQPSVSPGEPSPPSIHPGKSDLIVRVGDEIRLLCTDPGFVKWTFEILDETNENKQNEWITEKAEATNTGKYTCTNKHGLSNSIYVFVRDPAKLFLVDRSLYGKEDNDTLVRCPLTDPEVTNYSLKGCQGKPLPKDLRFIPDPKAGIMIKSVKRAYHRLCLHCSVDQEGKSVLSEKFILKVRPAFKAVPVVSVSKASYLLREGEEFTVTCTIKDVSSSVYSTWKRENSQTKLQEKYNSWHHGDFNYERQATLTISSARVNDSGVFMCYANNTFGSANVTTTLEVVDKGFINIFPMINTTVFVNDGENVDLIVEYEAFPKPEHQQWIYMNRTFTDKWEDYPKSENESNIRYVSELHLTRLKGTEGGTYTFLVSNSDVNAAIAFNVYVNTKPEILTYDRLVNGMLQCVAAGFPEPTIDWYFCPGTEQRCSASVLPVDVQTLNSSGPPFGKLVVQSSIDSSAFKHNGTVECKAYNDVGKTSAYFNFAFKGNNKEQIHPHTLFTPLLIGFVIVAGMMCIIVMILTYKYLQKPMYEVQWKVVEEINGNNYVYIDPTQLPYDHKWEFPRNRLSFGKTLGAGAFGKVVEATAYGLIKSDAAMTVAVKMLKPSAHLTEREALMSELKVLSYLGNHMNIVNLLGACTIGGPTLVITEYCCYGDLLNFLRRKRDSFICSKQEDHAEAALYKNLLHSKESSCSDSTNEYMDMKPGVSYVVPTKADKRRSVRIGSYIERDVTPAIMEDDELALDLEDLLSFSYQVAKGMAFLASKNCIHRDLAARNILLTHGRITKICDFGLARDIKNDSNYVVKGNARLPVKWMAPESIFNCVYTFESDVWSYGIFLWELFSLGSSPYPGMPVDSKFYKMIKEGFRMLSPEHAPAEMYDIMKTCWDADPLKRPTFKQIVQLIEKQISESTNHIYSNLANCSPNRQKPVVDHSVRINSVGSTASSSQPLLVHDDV
Chain of UniProt Q7KZI7 (whole entry, looked up): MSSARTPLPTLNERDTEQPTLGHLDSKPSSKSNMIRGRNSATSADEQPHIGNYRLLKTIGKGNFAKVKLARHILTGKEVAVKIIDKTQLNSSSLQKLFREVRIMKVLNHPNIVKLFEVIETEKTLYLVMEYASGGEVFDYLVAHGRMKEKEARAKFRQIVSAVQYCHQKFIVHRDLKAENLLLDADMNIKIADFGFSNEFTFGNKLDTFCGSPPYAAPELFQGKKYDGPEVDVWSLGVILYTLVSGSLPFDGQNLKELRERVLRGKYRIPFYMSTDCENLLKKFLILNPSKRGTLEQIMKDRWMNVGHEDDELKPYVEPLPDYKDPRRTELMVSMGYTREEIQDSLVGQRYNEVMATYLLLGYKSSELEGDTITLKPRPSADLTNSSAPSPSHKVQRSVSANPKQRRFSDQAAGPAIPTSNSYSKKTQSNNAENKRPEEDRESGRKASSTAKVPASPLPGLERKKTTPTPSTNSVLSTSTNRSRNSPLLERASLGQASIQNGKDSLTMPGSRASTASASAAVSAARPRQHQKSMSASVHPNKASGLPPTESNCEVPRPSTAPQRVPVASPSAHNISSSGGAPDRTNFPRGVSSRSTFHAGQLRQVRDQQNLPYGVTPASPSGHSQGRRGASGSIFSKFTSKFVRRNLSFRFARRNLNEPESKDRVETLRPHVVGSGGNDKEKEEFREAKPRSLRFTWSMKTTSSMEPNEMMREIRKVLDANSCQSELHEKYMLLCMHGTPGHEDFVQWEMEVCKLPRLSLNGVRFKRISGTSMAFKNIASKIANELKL
Chain of UniProt Q9H0K1 (whole entry, looked up): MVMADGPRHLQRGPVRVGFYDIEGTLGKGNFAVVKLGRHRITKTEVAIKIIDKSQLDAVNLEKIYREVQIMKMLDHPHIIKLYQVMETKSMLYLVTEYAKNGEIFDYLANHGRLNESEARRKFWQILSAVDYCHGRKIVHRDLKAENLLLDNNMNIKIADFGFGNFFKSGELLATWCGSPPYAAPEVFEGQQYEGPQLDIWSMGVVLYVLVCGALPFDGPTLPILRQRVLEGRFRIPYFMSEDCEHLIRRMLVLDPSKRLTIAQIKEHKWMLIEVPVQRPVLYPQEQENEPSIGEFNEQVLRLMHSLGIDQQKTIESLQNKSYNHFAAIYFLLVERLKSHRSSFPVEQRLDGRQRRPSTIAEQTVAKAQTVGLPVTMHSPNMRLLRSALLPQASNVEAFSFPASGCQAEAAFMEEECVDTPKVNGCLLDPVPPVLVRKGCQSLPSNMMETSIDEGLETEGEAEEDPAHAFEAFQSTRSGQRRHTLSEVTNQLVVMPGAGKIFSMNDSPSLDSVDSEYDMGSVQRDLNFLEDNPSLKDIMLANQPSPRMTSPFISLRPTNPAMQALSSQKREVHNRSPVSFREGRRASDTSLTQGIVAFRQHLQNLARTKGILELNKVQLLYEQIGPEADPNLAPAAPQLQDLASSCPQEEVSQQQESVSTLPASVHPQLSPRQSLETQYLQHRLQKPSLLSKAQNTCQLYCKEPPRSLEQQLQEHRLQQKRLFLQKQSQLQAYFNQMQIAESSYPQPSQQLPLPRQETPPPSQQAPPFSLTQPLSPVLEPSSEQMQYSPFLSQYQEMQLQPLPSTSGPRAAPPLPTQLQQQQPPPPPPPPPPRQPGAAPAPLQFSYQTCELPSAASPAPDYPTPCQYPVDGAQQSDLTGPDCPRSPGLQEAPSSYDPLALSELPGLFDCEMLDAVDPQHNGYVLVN
Chain of UniProt Q13153 (whole entry, looked up): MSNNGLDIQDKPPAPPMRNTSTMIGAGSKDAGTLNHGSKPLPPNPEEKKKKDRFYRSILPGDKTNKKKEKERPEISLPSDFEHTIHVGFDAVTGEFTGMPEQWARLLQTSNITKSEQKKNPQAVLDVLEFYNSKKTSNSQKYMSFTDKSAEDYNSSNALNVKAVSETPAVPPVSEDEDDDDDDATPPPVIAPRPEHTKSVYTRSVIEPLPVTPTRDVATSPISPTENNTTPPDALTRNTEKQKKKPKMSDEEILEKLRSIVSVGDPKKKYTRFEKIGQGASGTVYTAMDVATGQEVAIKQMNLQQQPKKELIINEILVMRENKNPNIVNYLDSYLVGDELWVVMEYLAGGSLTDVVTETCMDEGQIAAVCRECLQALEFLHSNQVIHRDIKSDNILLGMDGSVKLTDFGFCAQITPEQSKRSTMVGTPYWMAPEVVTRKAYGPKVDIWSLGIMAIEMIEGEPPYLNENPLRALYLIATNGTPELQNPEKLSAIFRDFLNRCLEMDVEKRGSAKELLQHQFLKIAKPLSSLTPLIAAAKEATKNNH
Chain of UniProt P11802 (whole entry, looked up): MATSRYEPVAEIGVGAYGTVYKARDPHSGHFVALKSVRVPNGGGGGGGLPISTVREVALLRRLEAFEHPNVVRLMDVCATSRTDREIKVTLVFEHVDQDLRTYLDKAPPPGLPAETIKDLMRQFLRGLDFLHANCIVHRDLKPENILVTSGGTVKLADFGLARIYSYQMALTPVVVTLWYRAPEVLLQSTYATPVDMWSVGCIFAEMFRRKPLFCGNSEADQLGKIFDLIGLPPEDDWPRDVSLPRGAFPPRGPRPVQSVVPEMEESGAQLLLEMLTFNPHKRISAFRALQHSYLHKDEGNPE

Set 1
Cell line: A-375
Concentration: 100 µM
Time: 36 h
SMILES	viability [%]
CN1C(C(=O)Nc2ccccn2)=C(O)c2sc(Cl)cc2S1(=O)=O	78
CC(C)Cc1ccc(C(C)C(=O)O)cc1 (stereo not shown)	98.4
Cc1ccccc1C(=O)Nc1ccc(C(=O)N2CCCC(N(C)C)c3ccccc32)cc1 (stereo not shown)	29.6
CC1(C)[C@H]2CC[C@]1(C)C(=O)C2	113
CCCCC(CC)CN1CN(CC(CC)CCCC)CC(C)(N)C1 (stereo not shown)	-2.86
Cc1ccnc2c1NC(=O)c1cccnc1N2C1CC1	115
Cc1cc(-c2ccc(/N=N/c3ccc4c(S(=O)(=O)O)cc(S(=O)(=O)O)c(N)c4c3O)c(C)c2)ccc1/N=N/c1ccc2c(S(=O)(=O)O)cc(S(=O)(=O)O)c(N)c2c1O	139
c1ccc2c(c1)CCCC2C1=NCCN1 (stereo not shown)	113
CCCCN(CCCC)CC(O)c1cc(Cl)cc2c1-c1ccc(Cl)cc1/C2=C/c1ccc(Cl)cc1 (stereo not shown)	5.17

Set 2
SMILES: O=C(NS(=O)(=O)c1ccc(NCC2CCOCC2)c([N+](=O)[O-])c1)c1ccc(N2CCN(Cc3ccc(C(F)(F)F)cc3-c3ccc(Cl)cc3)CC2)cc1Oc1cnc2[nH]ccc2c1
Read-out: cell-free assay
Technique: competition with immobilised ligand
Concentration: 1 µM
target	remaining binding
GAK (Homo sapiens, UniProt O14976)	100%
PAK1 (Homo sapiens, UniProt Q13153)	100%
ERBB4 (Homo sapiens, UniProt Q15303)	100%
STK32A (Homo sapiens, UniProt Q8WU08)	99%
WNK4 (Homo sapiens, UniProt Q96J92)	71%
Tyrosine-protein kinase ABL1, phosphorylated (ABL1, Homo sapiens, UniProt P00519)	86%
NEK7 (Homo sapiens, UniProt Q8TDX7)	97%
BLK (Homo sapiens, UniProt P51451)	84%
FLT3 (Homo sapiens, UniProt P36888, D835V)	100%

Set 3
Target: Rho-associated protein kinase 2 (ROCK2, Homo sapiens, UniProt O75116)
Chain of UniProt O75116 (whole entry, looked up): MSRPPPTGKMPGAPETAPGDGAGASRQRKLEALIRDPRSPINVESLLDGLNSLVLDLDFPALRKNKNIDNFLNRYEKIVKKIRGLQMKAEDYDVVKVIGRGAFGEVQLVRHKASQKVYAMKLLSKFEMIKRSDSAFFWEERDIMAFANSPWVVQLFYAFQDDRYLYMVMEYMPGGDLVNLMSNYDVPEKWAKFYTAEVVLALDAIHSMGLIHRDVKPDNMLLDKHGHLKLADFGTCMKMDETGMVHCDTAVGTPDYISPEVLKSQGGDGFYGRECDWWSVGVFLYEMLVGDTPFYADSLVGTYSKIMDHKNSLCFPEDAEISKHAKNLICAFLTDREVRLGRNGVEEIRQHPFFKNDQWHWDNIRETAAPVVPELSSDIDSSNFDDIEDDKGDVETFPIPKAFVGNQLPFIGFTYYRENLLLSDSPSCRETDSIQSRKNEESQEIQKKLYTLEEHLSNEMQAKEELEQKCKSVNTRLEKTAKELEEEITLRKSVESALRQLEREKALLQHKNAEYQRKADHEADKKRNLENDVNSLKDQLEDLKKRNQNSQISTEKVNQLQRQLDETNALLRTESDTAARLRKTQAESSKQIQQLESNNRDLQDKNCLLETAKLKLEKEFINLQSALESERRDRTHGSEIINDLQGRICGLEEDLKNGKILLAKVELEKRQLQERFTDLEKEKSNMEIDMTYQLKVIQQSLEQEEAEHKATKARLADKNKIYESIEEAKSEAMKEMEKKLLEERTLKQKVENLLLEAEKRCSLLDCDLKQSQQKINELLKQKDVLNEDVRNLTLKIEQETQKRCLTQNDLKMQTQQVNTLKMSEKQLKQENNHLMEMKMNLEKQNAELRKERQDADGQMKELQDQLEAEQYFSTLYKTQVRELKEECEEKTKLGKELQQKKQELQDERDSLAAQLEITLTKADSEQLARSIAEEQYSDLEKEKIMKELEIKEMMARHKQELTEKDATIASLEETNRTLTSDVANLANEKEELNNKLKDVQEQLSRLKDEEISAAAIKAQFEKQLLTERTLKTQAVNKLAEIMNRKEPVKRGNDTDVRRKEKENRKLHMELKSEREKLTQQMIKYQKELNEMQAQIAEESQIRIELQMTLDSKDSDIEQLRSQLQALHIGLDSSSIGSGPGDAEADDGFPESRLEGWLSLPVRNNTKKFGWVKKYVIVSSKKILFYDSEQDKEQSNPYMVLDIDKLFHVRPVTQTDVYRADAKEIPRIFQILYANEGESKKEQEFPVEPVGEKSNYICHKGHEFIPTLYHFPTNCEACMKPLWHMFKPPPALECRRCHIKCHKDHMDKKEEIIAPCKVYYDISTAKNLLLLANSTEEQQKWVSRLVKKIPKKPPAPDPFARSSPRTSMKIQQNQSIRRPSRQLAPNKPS
Read-out: enzyme activity
Mode: inhibitor
Concentration: 0.5 µM
Baseline: control
SMILES	remaining activity
Oc1ccc(-c2nc(-c3ccncc3)c(-c3ccc(F)cc3)[nH]2)cc1	93.6%
Cc1ccc(Nc2nccc(N(C)c3ccc4c(C)n(C)nc4c3)n2)cc1S(N)(=O)=O	91.1%
O=C1NC(=O)C(c2cn(CCCO)c3ncccc23)=C1c1cnccn1	96%
COc1ccc(C(=O)Nc2sc3c(c2C(N)=O)CCCC3)cc1OC	92.3%
CC(C)[C@H](CO)Nc1nc(Nc2cc(N)cc(Cl)c2)c2ncn(C(C)C)c2n1	101%
Cc1ccc(NC(=O)c2ccc(CN3CCN(C)CC3)cc2)cc1Nc1nc(-c2cccnc2)cs1	95.1%
CN(C)c1ccc(C=C2C(=O)Nc3ccccc32)cc1	95.2%
C#Cc1cccc(Nc2ncnc3cc(OCCOC)c(OCCOC)cc23)c1	91%
Nc1ccc2ncnc(NCCc3ccc(Oc4ccccc4)cc3)c2c1	90.7%
Nc1[nH]nc2nc3ccccc3nc12	93.3%
O=c1c2ccccc2[nH]c(=S)n1CCN1CCC(=C(c2ccc(F)cc2)c2ccc(F)cc2)CC1	98.8%
COc1ccc(OC)c2c(=S)c3ccccc3[nH]c12	90.4%
COc1cc2ncnc(Nc3ccc(Oc4ccccc4)cc3)c2cc1OC	99.3%
Cn1sc(=O)n(Cc2ccccc2)c1=O	88.8%
O=C(O)c1ccc2c3c1cccc3c(=O)n1c3ccccc3nc21	99%

Set 4
SMILES: CN1CCN(C(=O)c2ccc(NC(=O)Nc3ccc(N(C)c4ccnc(Nc5ccc(CS(C)(=O)=O)cc5)n4)cc3)cc2)CC1
Concentration: 1 µM
target	technique	setting	added	baseline	remaining binding
TIE1 (Homo sapiens, UniProt P35590)	competitive binding panel	–	–	vehicle	8.3%
MARK2 (Homo sapiens, UniProt Q7KZI7)	competitive binding panel	–	–	vehicle	84%
KIT (Homo sapiens, UniProt P10721)	competitive binding scan	autoinhibited form	–	–	35%
NEK1 (Homo sapiens, UniProt Q96PY6)	competitive binding panel	–	–	vehicle	63%
CDPK1 (Plasmodium falciparum, UniProt P62344)	competitive binding, scanMAX	Plasmodium falciparum CDPK1, 1000 nM	–	–	71%
MARK4 (Homo sapiens, UniProt Q96L34)	competitive binding panel	–	–	vehicle	92%
SIK2 (Homo sapiens, UniProt Q9H0K1)	competitive binding panel	–	–	vehicle	56%
CSNK1G3 (Homo sapiens, UniProt Q9Y6M4)	competitive binding panel	–	–	vehicle	100%
MAP4K4 (Homo sapiens, UniProt O95819)	competitive binding panel	–	–	vehicle	33%
CDK4 (Homo sapiens, UniProt P11802)	competitive binding scan	–	cyclin D3	–	89%
